Measured values gathered from unrelated publications.
Numbered parts are unrelated; each lists some results of a single study.

Study 1
Target: RNA binding protein fox-1 homolog 2, RRM domain, GST-SBP tag (RBFOX2, Homo sapiens, UniProt O43251-10, residues 100-194)
Technique: RNA Bind-n-Seq
Molecule type: RNA
Matrix: in vitro
Tested at: 365 nM
Notes: natural RNA segment, single round, ends assumed
Baseline: no-protein control
Reading: higher = stronger binding
Construct (chain): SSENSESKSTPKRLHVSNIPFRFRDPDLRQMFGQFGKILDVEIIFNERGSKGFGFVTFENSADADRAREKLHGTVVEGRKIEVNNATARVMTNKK
Oligonucleotide	RBNS enrichment (R)
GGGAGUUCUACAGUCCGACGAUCCCAGAGUGUUCUCAGUAUGUCAGAGAAAGUGCCACAGCAUUAGGACGGGAGCUUGGAGAACGUUUUCUAGAAAAGGGUUAGCUUCCUGUUGGCAUGAAAUUUUCCAAGCAUGGAAUUCUCGGGUGCCAA	4.05
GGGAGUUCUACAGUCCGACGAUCACUUGUCCAGUGCUCCCACGGCCUGUACGGACACUGUGGAAGGCCUCCCUCUGUCGGCUUUUUGCCAUCUGUGAUAUGCCAUAGGUGUGACAAUCCGAGCAGUGGAGUCAUGGAAUUCUCGGGUGCCAA	0.273
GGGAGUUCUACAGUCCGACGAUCGCCUCUCCAGUGAUUUUUUUUCCCAUUUUCUUCAGUGUUUCUAUAGCAGAGAUUUGAUAAUAAAAAGAAAAUCCUAAACAAUGAGAAAUAAAGUUACCUGGUUUCUCUGUUGGAAUUCUCGGGUGCCAA	0.527
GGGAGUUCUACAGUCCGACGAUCGUGUUAAUGCUUCUGAAGCAUCAGGAAGGUUGAAAGCCACUGCUCUAGAGCCAAGUGAGUGCAUGUCUAGGGUUCCCAUGUUUACAGUAAGGACCGGCUCAGGCACUGACUGGAAUUCUCGGGUGCCAA	6.59
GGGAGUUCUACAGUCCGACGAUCUGCAUGGACAAAGCAGGUAGAGGGGCACCAUCAGGGGCUCUUGCACUAUUUUCACCUCUAAAUAUUACGUACUCAGUAGUGCCCUGCUUCUAGGGCUCUGAAUACGGGCUUGGAAUUCUCGGGUGCCAA	0.913
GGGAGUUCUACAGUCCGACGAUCAGUCUCUCUCGGAGGAAGCUGAGACAACAUACUCUGUCCAUACAUAAGCAGGCAGGGAGGGCCAUGCCACCUACCCUUGGCUAAACAGGGACAGUGAACACAUUUUGGUUUGGAAUUCUCGGGUGCCAA	0.501
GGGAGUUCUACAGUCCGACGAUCCUAGUUAAUGGUAGAAUACUCCCAAAACUUGGAGAAAGAACUGCUCUCUGAAGCUAUCAGAAAUACCUAUGCCAGUAUAGAAGGGGAACUUGGUGAAGGAUGGUGCUCAUUGGAAUUCUCGGGUGCCAA	1.2
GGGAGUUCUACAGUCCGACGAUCAAAAUGUAGGCUUAGUUUGUGUGUUGUCUCUUGAGUUUGUCGCUCAUGUGUGCAACAGGGUAUGGACUAUCUGUCUGGUGGCCCCGUUUCUGGUGGUCUGUUGGCAGGCUUGGAAUUCUCGGGUGCCAA	0.468
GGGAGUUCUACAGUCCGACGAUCUGUAAAAUAUUUUCAAAUGGUUUAUUACAGAAGAUCAGUUAUUAAAUAAUGUUCAUAUUUUCACUUCAAACCAGUUUCUAUCCACUGUGUGGGCCUUGGGUUGAGGACUGUGGAAUUCUCGGGUGCCAA	0.479
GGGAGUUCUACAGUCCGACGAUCGUUCAGCACAGUAAAAUAUAUUUGAAAUUUGAUAAGCCAAAAAUGUGGUUUUGAAUGAAUAUUUUGUGAAUCUUUCUUAAAAGCUCAAAUUUGUAGACUUCUAAAUAGAAUGGAAUUCUCGGGUGCCAA	2.09
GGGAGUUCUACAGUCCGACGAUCACUUGGACACAGGUUUCAGCUGGCCCCAGCCCAGAAGUGACCCCCAGAAAGGGAGGGCCACCGCUUUGCCCCCUGCUUUUACCCUUCCUUCUGGGUGCUCUACACCUCAGUGGAAUUCUCGGGUGCCAA	0.294
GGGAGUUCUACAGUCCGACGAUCAGUAGAGUUGUUGUUUGGGGUACAAGAUGAGAAGAAAGAAAAACCUACAGCCUUUCUACAUUCUGACAUGCUAACAGUGGUUUAAGUUUCUAAAGUGUUUACCAGAUGCUUGGAAUUCUCGGGUGCCAA	0.648

Study 2
Target: Histone acetyltransferase KAT6A, both winged helices, GST fusion (KAT6A, Homo sapiens, UniProt Q92794, residues 1-181)
Technique: protein binding microarray
Molecule type: double-stranded DNA, one strand shown
Matrix: in vitro
Tested at: not given
Notes: 8-mer, flanks averaged, mean of 2 arrays, mostly near background
Baseline: not given
Reading: higher = stronger binding
Target sequence (chain): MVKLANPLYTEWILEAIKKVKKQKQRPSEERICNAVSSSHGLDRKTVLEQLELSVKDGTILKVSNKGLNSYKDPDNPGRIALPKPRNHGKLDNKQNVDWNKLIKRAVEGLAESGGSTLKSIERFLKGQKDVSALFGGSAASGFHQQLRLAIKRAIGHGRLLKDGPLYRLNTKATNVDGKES
Oligonucleotide	E-score
CTTTATCA	-0.201
CATCTGGG	-0.0871
AAGCCCGC	0.212
AGCCCGAC	-0.0297
CCGACCCA	0.103
CTCGGCAA	0.117
GTCACGTA	0.0059
CCTCCACC	-0.173
ATGGAACC	0.0329
GTTGGGTA	-0.167
TATGATCA	-0.073
ATGGCGTC	0.144
CTGTCAAA	-0.00618
TTTAAAAA	-0.0309
CTTTTAAA	0.0261
CCGTGTTA	0.205
GGCGTAAA	0.217
AGGAGAGG	-0.232
CAGTCACA	-0.137
AGATTGGG	-0.258
AGAACTTG	-0.219
ACGCTGTA	0.174

Study 3
Target: RING finger protein unkempt homolog, zinc fingers 1-6, GST-SBP tag (UNK, Homo sapiens, UniProt Q9C0B0, residues 30-357)
Technique: RNA Bind-n-Seq
Molecule type: RNA
Matrix: in vitro
Tested at: not given
Notes: RNA with constant flanks, human and mouse sites, ends assumed
Baseline: input RNA pool
Reading: higher = stronger binding
Target sequence (chain): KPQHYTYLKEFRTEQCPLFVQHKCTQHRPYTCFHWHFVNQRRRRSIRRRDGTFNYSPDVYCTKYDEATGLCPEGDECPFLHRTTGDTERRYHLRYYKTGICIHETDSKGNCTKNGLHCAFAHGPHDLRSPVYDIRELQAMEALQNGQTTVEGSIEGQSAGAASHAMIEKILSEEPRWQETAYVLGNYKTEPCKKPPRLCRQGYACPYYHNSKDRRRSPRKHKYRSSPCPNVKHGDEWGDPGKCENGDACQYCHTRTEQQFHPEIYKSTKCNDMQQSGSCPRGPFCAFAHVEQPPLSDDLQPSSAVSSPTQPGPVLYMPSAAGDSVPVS
Oligonucleotide	bound/input enrichment
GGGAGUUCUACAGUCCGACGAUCGAAUUGGGUGACCACGUGACCAACUUGCGCAAGAUGGGAGCGCCCGAAUCUGGCUUGGCGGAAUAUCUCUUUGACAAGCACACCCUGGGAGACAGUGAUAAUGAAAGCUAAGCCUCGGGCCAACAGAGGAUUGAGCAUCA	0.108 ratio
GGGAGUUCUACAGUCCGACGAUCAAACGCAUCCGCUACCAUGGCAGAGGUCGCUUUGGGAUCAUGGAGAAGGUUUAUUGCCAUUAUUUUGUGAAGUUGGUGGAAGGGCCCCCACCUCCACCUGAGCCACCAAAGACGGCAGUUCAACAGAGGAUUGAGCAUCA	0.166 ratio
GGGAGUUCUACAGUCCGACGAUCAUGGAGAGAAAAGAUUUACUGAAAGCAAAUGUGAAAAUCUUCAAAUCCCAGGGUGCAGCCUUAGAUAAAUACGCCAAGAAGUCAGUUAAGGUUAUUGUUGUGGGUAAUCCAGCCAAUACCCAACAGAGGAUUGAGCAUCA	0.361 ratio
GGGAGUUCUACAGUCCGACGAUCCUGGCAUCAGUGAAGAUUUCCAAGGUGAAAUAUGUUAUCUGGUCGGCAGACAUGUCUCAUGUAGCGUUACUGGCCAAGCAUGCCAUUGUGAUCUGUAACCGCAAGCUGGAUGCUCUGUGUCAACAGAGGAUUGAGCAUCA	0.136 ratio
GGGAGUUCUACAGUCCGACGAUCUCCCUAAUCAAAGUAAACUAUAAUCAGACUGCAGUCAAAGUGCCUACAACACCUGCCAGCCCAGUGAAAAACUGGGGAGGAUUCCGGAUUCCAAAGAAGGGGGAACGGCAGCAGCAGGGACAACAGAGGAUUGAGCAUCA	0.207 ratio
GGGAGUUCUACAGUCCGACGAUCAGAGACAUGUUGCGGCGGAUUAAGGAAGAUGAAGAUGACAAGACAGUCAUGGAUCUUGCUGUAGUUUUGUUUGAAACGGCAACACUUCGGUCAGGAUAUCUUCUACCAGACACCAAGGCGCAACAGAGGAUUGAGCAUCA	0.155 ratio
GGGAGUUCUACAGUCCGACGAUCGUGGAGUUGAUGUCCUUCCCUGGCUCGCUACAGACGCACUUCCGCAAGUGUUACAGCUCUUUUAGAAUUUGUCUAGCAGGUUUUCUGACUUCGGUCGGAAAACCCCUCCCAAUUUCACUGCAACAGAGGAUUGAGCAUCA	0.407 ratio
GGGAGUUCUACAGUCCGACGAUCUUCUAGGGCUGGUUCCCGUCAUCUUCGGGAGCCGUGGAGCGUGGGGCGCCCACAAUUUGCGCGCUCUCUUUCUGCUGCUCCCCAGCUCUCGGAUACAGCCGACACCAUGGGUUUCGGAGACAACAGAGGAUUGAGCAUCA	0.0531 ratio
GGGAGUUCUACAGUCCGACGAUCCCUUAUGAACUUGGUCGGCUCUUCCAGCUACAAACUCUAGGUUUGAAAGGCAAUCCUUUAUCACAGGAUAUUCUCAACUUAUACCAGGACCCAGAUGGAACCCGAAAGCUACUGAACUUCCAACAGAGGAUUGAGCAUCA	0.126 ratio
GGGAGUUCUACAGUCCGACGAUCGAUGGGCCUAUUUGCUUGGUGCUGGCACCAACUCGAGAACUGGCACAGCAGGUGCAGCAAGUGGCUGCUGAAUAUUGUCGAGCUUGUCGCUUGAAGUCUACUUGCAUCUAUGGUGGUGCUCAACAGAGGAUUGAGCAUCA	0.222 ratio
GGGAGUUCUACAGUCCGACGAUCUCCAGCCAGCACAUCUCCAUUGAGGGCCAGAAGGAAGAGGAAAGGUAUGAGAGAAUCGAAAUCCCAAUCCAUAUUGUACCUCAUGUCACUAUCGGGAAAGUGUGCCUUGAAUCAGCAGUACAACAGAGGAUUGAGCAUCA	0.217 ratio

Study 4
Target: Prothrombin, mature alpha-thrombin (F2, Homo sapiens, UniProt P00734)
Technique: aptamer microarray, sandwich
Molecule type: DNA with 2'F-ANA
Matrix: in vitro
Tested at: 200 nM
Notes: whole 15-mer aptamer, many near background
Together with: Cy3 exosite-II aptamer, 400 nM
Reading: higher = stronger binding
Oligonucleotide: GGTTGGTGTGGTTGG
Modification	mean fluorescence intensity
2'F-ANA at 1 3 5 7 8 10 11 12 13 14 15	47.5 a.u.
2'F-ANA at 1 5 6 7 8 10 11 12	63 a.u.
2'F-ANA at 1 3 4 5 6 7 9 12 13 14 15	51.1 a.u.
2'F-ANA at 6 7 8 9 11 12 15	602 a.u.
2'F-ANA at 1 2 6 7 9 13 14	55.5 a.u.
2'F-ANA at 5 7 9 10 11 12 15	76 a.u.
2'F-ANA at 4 5 9 10 12 13	47.9 a.u.
2'F-ANA at 3 9 10	531 a.u.
2'F-ANA at 1 3 4 5 8 9 13 14	55.5 a.u.
2'F-ANA at 3 5 6 8 9 12 13 14 15	61.8 a.u.
2'F-ANA at 3 4 6 7 8 10 14 15	235 a.u.
2'F-ANA at 1 3 5 6 8 9 11 14 15	49.2 a.u.
2'F-ANA at 1 6 7 11 13 15	138 a.u.
2'F-ANA at 2 7 8 11 12 14 15	184 a.u.
2'F-ANA at 1 2 3 5 7 11 13 14 15	46.7 a.u.
2'F-ANA at 1 2 3 5 9 11 12 13 15	73.8 a.u.
2'F-ANA at 2 3 4 5 8 9 11 13	68.2 a.u.
2'F-ANA at 1 2 6 8 9 12 15	362 a.u.
2'F-ANA at 3 5 6 7 8 9 12 14 15	58.2 a.u.
2'F-ANA at 2 3 4 12	887 a.u.
2'F-ANA at 1 4 5 6 9 10 14	56.9 a.u.
2'F-ANA at 5 10 12 13	47 a.u.
2'F-ANA at 2 3 6 8 10 11 12 13 15	338 a.u.
2'F-ANA at 2 3 5 7 8 9 10 11 14	50.7 a.u.
2'F-ANA at 3 4 5 6 7 12 13 14	79 a.u.

Repeated from above (study 1):
Oligonucleotide	RBNS enrichment (R)
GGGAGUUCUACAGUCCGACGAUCAAAAUGUAGGCUUAGUUUGUGUGUUGUCUCUUGAGUUUGUCGCUCAUGUGUGCAACAGGGUAUGGACUAUCUGUCUGGUGGCCCCGUUUCUGGUGGUCUGUUGGCAGGCUUGGAAUUCUCGGGUGCCAA	0.468
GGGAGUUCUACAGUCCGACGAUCGUUCAGCACAGUAAAAUAUAUUUGAAAUUUGAUAAGCCAAAAAUGUGGUUUUGAAUGAAUAUUUUGUGAAUCUUUCUUAAAAGCUCAAAUUUGUAGACUUCUAAAUAGAAUGGAAUUCUCGGGUGCCAA	2.09
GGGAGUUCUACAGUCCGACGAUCUGUAAAAUAUUUUCAAAUGGUUUAUUACAGAAGAUCAGUUAUUAAAUAAUGUUCAUAUUUUCACUUCAAACCAGUUUCUAUCCACUGUGUGGGCCUUGGGUUGAGGACUGUGGAAUUCUCGGGUGCCAA	0.479
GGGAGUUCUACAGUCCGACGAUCCUAGUUAAUGGUAGAAUACUCCCAAAACUUGGAGAAAGAACUGCUCUCUGAAGCUAUCAGAAAUACCUAUGCCAGUAUAGAAGGGGAACUUGGUGAAGGAUGGUGCUCAUUGGAAUUCUCGGGUGCCAA	1.2
